# Measurements gathered from unrelated publications.
# A part holds a random share of what one study measured.

# Sample 1
# Target: Fragile X messenger ribonucleoprotein 1, C-terminal low-complexity region (Fmr1, Mus musculus, UniProt P35922)
# Method: RNA Bind-n-Seq
# Molecule type: RNA
# Matrix: in vitro
# Concentration: 200 nM
# Setting: whole 134-nt RNA, ends assumed
# Together with: 150 mM LiCl
# Relative to: input library
# Direction: higher = stronger binding
# Library: 7-deaza-guanosine replaces G
Strand,log2 enrichment
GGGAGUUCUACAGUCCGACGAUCCUGUGCUACACAUCGUAUGUACCGAAUCAAAUUUUUUUAAACCCCCCCAAACCCCCCCAAAAAAGUAUUAUGUUACGCCGUUCGGAUCUGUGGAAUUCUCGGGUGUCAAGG,1.89
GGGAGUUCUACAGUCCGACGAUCACCAUGCAGGUGGGCAUCUUUGGGAAGUGGGGCAAGGGGGGGAUAGGGAUGGGGGUAACACUUUGGGAACAGGUGGUCCCAGGUCGUUUCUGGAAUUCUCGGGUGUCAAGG,1.07
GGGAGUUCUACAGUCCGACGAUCUGGGAGGUGGACUUUGUUUAUUUUUUUAGCUCAUUUCCAGGGGUGGGAAUUUUUUUUUAAUAUGUGUCAUGAAUAAAGUUGUUUUUGAAAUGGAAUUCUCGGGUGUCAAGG,-0.448
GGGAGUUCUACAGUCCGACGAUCUAACUUUAGAGGAGGAUCUGAUGGAUAUGGCAGUGGACGUGGAUUUGGGGAUGGCUCUAAUGGGUAUGGAGGAGGACCUGGAGGUGGCAAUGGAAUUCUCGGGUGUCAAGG,-0.207
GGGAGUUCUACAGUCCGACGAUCUCCUCAAGUCCUGUGCUACACAUCGUAUGUACCGAAUCGGUGGGUGGUGGGGAAAGUAUUAUGUUACGCCGUUCGGAUCUGCACUUCCAGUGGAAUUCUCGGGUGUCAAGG,0.89
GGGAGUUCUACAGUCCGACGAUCGUCCUGUGCUACACAUCGUAUGUACCGAAUCGGAAAAAGGGAAAAAGGGAAAAAGGGGAAAGUAUUAUGUUACGCCGUUCGGAUCUGCACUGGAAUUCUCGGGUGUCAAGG,0.271
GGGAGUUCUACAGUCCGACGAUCUCAGGAAGUAAAAACAAAUGGAAAUGCUUCGGAUAGUGGCAGGGGUGGGGGUUGCUAAGGAAAGGGUGGGAUGGGAGUGGGUAAAGAGUUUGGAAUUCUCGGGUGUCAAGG,1.06
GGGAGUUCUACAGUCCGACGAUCUGGGAGGUGGAAUUUGUUUAUUUUUUUAGCUCAUUUCCAGGGGUGGGAAUUUUUUUUUAAUAUGUGUCAUGAAUAAAGUUGUUUUUGAAAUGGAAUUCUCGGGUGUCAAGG,1.21
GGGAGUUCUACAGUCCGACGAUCUGGGAGGUGGAUUUUGUUUAUUUUUUUAGCUCAUUUCCAGGGGUGGGAAUUUUUUUUUAAUAUGUGUCAUGAAUGAAGUUGUUUUUGAAAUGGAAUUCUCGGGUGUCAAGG,0.324
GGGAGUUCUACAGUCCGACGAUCAAGUCCUGUGCUACACAUCGUAUGUACCGAAUCGGCCCCGGCCCCGGGGCCCCGGGGAAAGUAUUAUGUUACGCCGUUCGGAUCUGCACUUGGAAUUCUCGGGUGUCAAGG,-2.68
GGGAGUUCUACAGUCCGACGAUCUCCUCAAGUCCUGUGCUACACAUCGUAUGUACCGAAUCGGGGUGGUGGUGGAAAGUAUUAUGUUACGCCGUUCGGAUCUGCACUUCCAGCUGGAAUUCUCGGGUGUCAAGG,-0.995

# Sample 2
# Target: ATP-dependent RNA helicase DDX3X, helicase core (DDX3X, Homo sapiens, UniProt O00571, residues 132-607)
# Chain of UniProt O00571 (132-607, looked up): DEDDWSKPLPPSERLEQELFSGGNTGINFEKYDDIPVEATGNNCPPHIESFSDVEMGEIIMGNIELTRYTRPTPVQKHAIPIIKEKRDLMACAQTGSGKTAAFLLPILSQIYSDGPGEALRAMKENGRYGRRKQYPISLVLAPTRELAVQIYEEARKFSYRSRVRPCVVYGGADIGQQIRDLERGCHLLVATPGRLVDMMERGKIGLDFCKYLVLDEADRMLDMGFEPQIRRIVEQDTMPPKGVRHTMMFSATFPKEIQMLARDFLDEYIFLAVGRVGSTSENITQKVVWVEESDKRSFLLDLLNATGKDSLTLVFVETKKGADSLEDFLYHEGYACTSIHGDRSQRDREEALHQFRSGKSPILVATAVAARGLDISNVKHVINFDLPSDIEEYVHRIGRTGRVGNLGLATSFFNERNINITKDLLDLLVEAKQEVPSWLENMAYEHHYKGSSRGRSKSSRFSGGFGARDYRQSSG
# Method: RNA Bind-n-Seq
# Molecule type: RNA
# Matrix: in vitro
# Concentration: 90 pmol
# Setting: 4-mer, random 30-nt RNA, single round
# Together with: 3 µM iPr-DMDA-PatA, 2 mM ADP, 2 mM phosphate
# Relative to: input library
# Direction: higher = stronger binding
Strand,4-mer enrichment
GGCU,0.683 fold
GUUG,0.881 fold
UCCG,0.871 fold
AAGC,1.04 fold
CAUA,1.07 fold
UCUA,1 fold
UGCU,0.712 fold
AGAU,1.3 fold
AUCA,1.14 fold
GAAG,1.35 fold
CGUA,0.925 fold
AAAU,1.47 fold
CUCG,0.814 fold
UUGU,0.974 fold
UAUG,0.986 fold
UAAA,1.46 fold

# Sample 3
# Target: RNA binding protein fox-1 homolog 2, RRM domain, GST-SBP tag (RBFOX2, Homo sapiens, UniProt O43251-10, residues 100-194)
# Method: RNA Bind-n-Seq
# Molecule type: RNA
# Matrix: in vitro
# Concentration: 365 nM
# Setting: natural RNA segment, single round, ends assumed
# Relative to: no-protein control
# Direction: higher = stronger binding
# Residues (chain): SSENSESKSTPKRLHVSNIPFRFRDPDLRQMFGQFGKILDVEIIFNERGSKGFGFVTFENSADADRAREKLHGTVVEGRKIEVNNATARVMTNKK
Strand,RBNS enrichment (R)
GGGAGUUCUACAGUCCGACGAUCGGCUCCAUGGGGAGCCAUCUAAGUUCUUUUCUUUUGGAAGAUUGGGUGUCUCGGAGAGUUGCCAUAUCUCCUUGUGUGAAUUGCGUGCUUGGAAGCAAUUUUUAAAGGGAUGGAAUUCUCGGGUGCCAA,3.27
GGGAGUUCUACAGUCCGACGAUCAGCAUGAUGAAUUUUGCAUGGGUGGCCAGCCAGCUAGCCCAUAACUGAUAGAUGCAUUAGAAGUCAGCCAGCGCAUAGGUGCUCCCUCUAUAUUAUGGAGAAAGCAAAACUGGAAUUCUCGGGUGCCAA,1.26
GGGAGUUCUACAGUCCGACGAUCAGGGAAUCUGUUUUCUAUUUACAAGUCUGACAUCUUAAUCCCCACUGCCAAAAUGCUCCGAAAUCUAAAACGUGUUGAGCACCAACAGGAUACCACAAGUAAAAACUUUAUGGAAUUCUCGGGUGCCAA,0.68
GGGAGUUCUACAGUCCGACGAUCGAGGUGUGGAGCCGAGGCCUACCCCGCAGACACCUUGGACAUCCUCCUCCCACCCGGCUGCAGAGGCCAGAGGCCCCCAGCCCAGGGCUCCUGCACUUACUUGCUUAUUUUGGAAUUCUCGGGUGCCAA,0.308
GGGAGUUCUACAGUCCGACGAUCUCUCUUCUGCAAAUGAACAAAACAAAACAUAAAGGUGGUUGUUGUAAGCUAAGUAUAUUUGUGGAGGGAGAAGAUAUGUUUUUAUAAAGUUAUUCUAAUGGCUAUUUGUGUGGAAUUCUCGGGUGCCAA,0.768
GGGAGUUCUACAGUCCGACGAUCCCUAGAGCAGUGUCACAAGCUUCAGUAAGGCCAGUCAGCUGGAAGUCAGUCUACCGUAUAGUAACACUGUAUGUCAGUCUACAGACCACACUCUAGUUGUUUUCCAUGAAUGGAAUUCUCGGGUGCCAA,0.254
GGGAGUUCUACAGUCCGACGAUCAAAAGUAGCAUUCUUAUCUGUUAGAAACAUAGAGUGAGCUUCAUCUGUAAUCCUUAAACUCGAUGUGGUAAGUAGGAAGCAAGAAUUUAUCCUGUGUUUUCAGGCAGCAGUGGAAUUCUCGGGUGCCAA,0.366
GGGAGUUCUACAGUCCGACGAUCACCCUUGGCUUCCUGUUCAAAUAGCCUUUCCAGGUUUAACUUCUUUAAGGAGCCUCAAGUGAAAAAAACAAAAACAAAACAAAAAACCCAGGGCCACUGGGGGAAUGUUUUGGAAUUCUCGGGUGCCAA,0.29
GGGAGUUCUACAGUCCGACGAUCGAGAAUCACUUGAACCUAGGAGGCGGAGGUUGCAGUGAGCCAAGAUGGCGCCAUUGCACUCCAGCCUGGGUGACAAGAGUGAAACUCCAUCUCAAAAAAAAAGAAAAGAAUGGAAUUCUCGGGUGCCAA,0.326
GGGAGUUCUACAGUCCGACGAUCAAAACCUUCCUGAGGAUCUGGAUUCAGGACCCUCCAUGACUGGCCUAUUUACUGUUUACAGCUGGCCAGUGCAGAGCUGCUGCUCUUUUACCUUUUUAGGCCCCUGUAACUGGAAUUCUCGGGUGCCAA,0.495
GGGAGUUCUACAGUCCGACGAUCCAGGACCCUUAGAAUCAUAUUUUAGCUGAAGGAUGCUCACUGAUGCGGCCGAGGGCUUGGGAUACUGCACAGUGCUACUGUGUCCUGUGAAGGCUGGUGCACUCAGGGCUUGGAAUUCUCGGGUGCCAA,0.5
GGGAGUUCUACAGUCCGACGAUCGCUCCCUUGGCCAGGAGCGAGCGAAGCUGUGGCCUUGGUGAAGCUGCCCUCCUCUUCUCCCCUCACACUACAGCCCUGGUGGGGGAGAAGGGGGUGGGUGCUGCUUGUGGUGGAAUUCUCGGGUGCCAA,0.403

# Sample 4
# Target: RING finger protein unkempt homolog, zinc fingers 1-6, GST-SBP tag (UNK, Homo sapiens, UniProt Q9C0B0, residues 30-357)
# Method: RNA Bind-n-Seq
# Molecule type: RNA
# Matrix: in vitro
# Concentration: not given
# Setting: RNA with constant flanks, human and mouse sites, ends assumed
# Relative to: input RNA pool
# Direction: higher = stronger binding
# Target sequence (chain): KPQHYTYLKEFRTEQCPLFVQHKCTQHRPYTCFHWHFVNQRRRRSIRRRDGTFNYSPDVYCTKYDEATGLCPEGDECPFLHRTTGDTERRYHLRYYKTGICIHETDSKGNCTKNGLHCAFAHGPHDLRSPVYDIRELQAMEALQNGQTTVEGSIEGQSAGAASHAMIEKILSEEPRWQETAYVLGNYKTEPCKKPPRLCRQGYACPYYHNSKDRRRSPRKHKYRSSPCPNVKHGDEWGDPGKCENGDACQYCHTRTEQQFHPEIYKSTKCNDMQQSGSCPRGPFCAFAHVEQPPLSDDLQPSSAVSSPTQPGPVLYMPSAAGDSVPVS
Strand,bound/input enrichment [ratio]
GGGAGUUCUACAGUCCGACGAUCCCAGACAGCCCCUCUCCAGAUAGAUUUGGGAUGUUGCCAUUGGGUGAGCCUGCUGUUCUCAUCAGUGAGUUCCUGGACCGGUUUCAAAGCCUUUGCCAUUUGGACCUCCAACUUCCUUCUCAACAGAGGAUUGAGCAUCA,0.0979
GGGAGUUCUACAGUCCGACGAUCGAUAUCCCACUGUUCCCCGUGCAGACAAAAUACAUGGAUGUGGUCAAGGAGCGAAUCCGUUUAGCUCGACAGAUUGAGAAAUCUGAGUAUCGGAACUUCCAGGCUUGCCUGCACAACUCUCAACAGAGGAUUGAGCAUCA,0.0908
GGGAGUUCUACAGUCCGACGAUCGGAGGGCUCCUAACAGUGUAACUUAUUGUGUCCCCGCGUAUUUAUUUGUUGUAAAUAUUUGAGUAUUUUUAUAUUGACAAAUAAAAUGGAGAAAAUGAAACGAUUGCUCUGAUGGGGCUACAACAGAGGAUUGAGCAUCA,0.129
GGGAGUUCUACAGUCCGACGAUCGGGUUCUGUCUCCGACCUCCUUGCCCGCCCAAAGCCUUGGCAUAAGCUUAGUCUGAAAGGACGGGAACCCUUUGUCCGCAUGCAGCUAUGGCUGAACGACCCCAACAAUGUGGAGAAGCUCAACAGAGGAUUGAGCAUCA,0.119
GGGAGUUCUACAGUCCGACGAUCUGGGAACCGGCGAGAAUCGCCUUUCUGAAUGAAGAGCCCUCUUCACUGCCCCACCCUCACCUUAGAAUUCUCUCCUCUUUCCAAAGAAUGGCAGUUGAACCUCACUGGCCCCUCUGGGGACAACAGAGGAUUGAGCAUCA,0.178
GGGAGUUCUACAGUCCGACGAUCAAAUCGUGUGUGUCCAAUAUUGAAAGUGCUUUAUCUACACUCCAGUAUGUAAGCAGUAUAGUAGUUUCUUUAGAGAAUAGGUCAGCCAUUGUAAAGUACAAUGCAAGCUUAGUCACUCCACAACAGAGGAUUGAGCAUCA,9.31
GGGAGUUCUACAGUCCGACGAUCCCCUGGGGUAUGACGUGGCAUGGGGGAGCAAGCAGUCCAGGGGACCUCUUGGAAACAGCAUUAGGCUUUUUCCCUUUUCAGUAACAUUGUUCGGAACUACUUGUCAAUGUGUUUGAGGUGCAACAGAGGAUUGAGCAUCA,0.366
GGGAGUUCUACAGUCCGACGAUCUUUAUCUUAGAAAGCCUUGGGUCAUUCACAGGUAUCCAACCAGCCAUUGUUUAGUUUGUUUUUGAAGGGGUUUGAUAAUGCUUUUUAAGUUGUACAGAAUGCUUAAUCCAUCUUAUUACUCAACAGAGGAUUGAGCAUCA,3.68
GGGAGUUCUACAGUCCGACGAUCUUUUUUCAGUUUAUAUUAAUCUACUGUAUCAAUAAAAUUCUGUAAUUUGAAUGGGCUUUUAAUAGUCUAGAAUGUUAUUGUGUAUAGAUAUUACUUCUUGAACAUUAUGUUCAGAAAUGCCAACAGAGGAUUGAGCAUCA,2.24
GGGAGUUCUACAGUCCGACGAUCGCUCACAGCAUCCCAGUAACUGAUGGCAUGUUUGUCUUUAUGUAAACUAUAUUGAAAUUUUUAGGGGCUAUUUUCCAUUAUGUCUGAACCUACUUUUGAUCUGAAAGCUUAACUUUAUAACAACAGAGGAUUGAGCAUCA,2.35
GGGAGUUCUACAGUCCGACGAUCCCAUCGUCAACUCACACCAUUCCAUUCUAUCCCAACCCCUUGCACCCUAGGCCAUUUCCUAGCUCCCGCCUUCCUCCAGGAAUUAUCGGGGGUGAAUAUGACCAAAGACCAACACUUCCCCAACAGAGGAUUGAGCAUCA,0.27

# Repeated from above (sample 2):
Strand,4-mer enrichment
AUCA,1.14 fold
UCCG,0.871 fold
AAAU,1.47 fold
AAGC,1.04 fold
GUUG,0.881 fold
UCUA,1 fold
CAUA,1.07 fold
UAAA,1.46 fold
